Results pooled from the literature.
± gives the spread as reported.

CC[C@H](C)C(=O)N1CCC(NC(=O)Nc2ccc(OC(F)(F)F)c(F)c2)CC1
participants with any Severe TEAE (healthy volunteers, both sexes; oral, 8 mg single dose, fasted state): 0%

COc1ccc(F)cc1S(=O)(=O)Nc1cnc2c(c1)C(=O)NCCO2
fraction unbound (monkey, plasma; 10 min): 0.128 to 0.137

c1ccc(C2(CCNC3CCC4(SCCS4)c4ccccc43)CCOC3(CCCC3)C2)nc1 (stereo not drawn)
concentration (rats, brain; intravenous, dose not given, 0.25 h): 403 ng/g

CC[C@H](C)[C@H](NC(=O)[C@H](Cc1ccccc1)NC(=O)[C@H](CCC(=O)O)NC(=O)[C@H](CCCCN)NC(=O)[C@H](C)NC(=O)[C@H](C)NC(=O)[C@H](CCC(N)=O)NC(=O)CNC(=O)[C@H](CCC(=O)O)NC(=O)[C@H](CC(C)C)NC(=O)[C@H](Cc1ccc(O)cc1)NC(=O)[C@H](CO)NC(=O)[C@H](CO)NC(=O)[C@@H](NC(=O)[C@H](CC(=O)O)NC(=O)[C@H](CO)NC(=O)[C@@H](NC(=O)[C@H](Cc1ccccc1)NC(=O)[C@@H](NC(=O)CNC(=O)[C@H](CCC(=O)O)NC(=O)CNC(=O)[C@@H](N)Cc1c[nH]cn1)[C@@H](C)O)[C@@H](C)O)C(C)C)C(=O)N[C@@H](C)C(=O)N[C@@H](Cc1c[nH]c2ccccc12)C(=O)N[C@@H](CC(C)C)C(=O)N[C@H](C(=O)N[C@@H](CCCCN)C(=O)NCC(=O)N[C@@H](CCCNC(=N)N)C(=O)N[C@@H](CSC1CC(=O)N(CCC(=O)NCCCCC(NC(=O)CCN2C(=O)CC(SC[C@H](NC(=O)[C@H](CCCNC(=N)N)NC(=O)CNC(=O)[C@H](CCCCN)NC(=O)[C@@H](NC(=O)[C@H](CC(C)C)NC(=O)[C@H](Cc3c[nH]c4ccccc34)NC(=O)[C@H](C)NC(=O)[C@@H](NC(=O)[C@H](Cc3ccccc3)NC(=O)[C@H](CCC(=O)O)NC(=O)[C@H](CCCCN)NC(=O)[C@H](C)NC(=O)[C@H](C)NC(=O)[C@H](CCC(N)=O)NC(=O)CNC(=O)[C@H](CCC(=O)O)NC(=O)[C@H](CC(C)C)NC(=O)[C@H](Cc3ccc(O)cc3)NC(=O)[C@H](CO)NC(=O)[C@H](CO)NC(=O)[C@@H](NC(=O)[C@H](CC(=O)O)NC(=O)[C@H](CO)NC(=O)[C@@H](NC(=O)[C@H](Cc3ccccc3)NC(=O)[C@@H](NC(=O)CNC(=O)[C@H](CCC(=O)O)NC(=O)CNC(=O)[C@@H](N)Cc3c[nH]cn3)[C@@H](C)O)[C@@H](C)O)C(C)C)[C@@H](C)CC)C(C)C)C(N)=O)C2=O)C(=O)NCCCCCCN)C1=O)C(N)=O)C(C)C (stereo partly drawn)
t1/2 (Kunming mouse, plasma; subcutaneous, 50 nmol/kg): 1.8 ± 0.2 h

CC[C@H](C)[C@H](NC(=O)[C@H](Cc1ccccc1)NC(=O)[C@H](CC(=O)O)NC(=O)[C@@H]1CCNC(=O)NCC[C@H](NC(=O)[C@H](CC(C)C)NC(=O)[C@H](CCCNC(=N)N)NC(=O)[C@H](CCSC)NC(=O)[C@H](C)N)C(=O)N[C@@H](CCCCN)C(=O)N[C@@H](Cc2ccccc2)C(=O)N[C@@H](Cc2ccccc2)C(=O)N1)C(=O)N[C@@H](CC(C)C)C(=O)N[C@@H](CCC(N)=O)C(=O)N[C@@H](CCCNC(=N)N)C(=O)N[C@@H](CCCCN)C(=O)N[C@@H](CCCCN)C(=O)O
helicity (circular dichroism; 20% TFE in PBS; 200 µM, pH 7.4, 25 °C): 18.9%

CC[C@H](C)[C@H](N)C(=O)N[C@@H](CO)C(=O)N[C@@H](Cc1ccc(O)cc1)C(=O)NCC(=O)NCC(=O)N[C@@H](C)C(=O)N[C@@H](CC(=O)O)C(=O)N[C@@H](Cc1ccc(O)cc1)C(=O)N[C@@H](CCCCN)C(=O)O
locomotor activity (open field test; mice; intrathecal, dose not given, 30 min before test): no effect

CN(C)C(CNC(=O)Nc1cc(C(F)(F)F)ccc1N1CCOCC1)c1ccncc1 (stereo not drawn)
serum iron (mouse, serum; intraperitoneal, 240 mg/kg single dose): 139 µg/dL

CC(=CCC(O)C(C)=Cc1csc(C)n1)CC=CC(C)C(O)C(C)C(=O)C(C)(C)C(O)CC(=O)O (stereo not drawn)
Cmax (human, plasma; intravenous infusion, 6.5 mg/m2 KOS-1584, 3 h infusion, cycle 1): 1.93 ± 0.73 ng/mL

C[C@H]1C(=O)O[C@@H]2O[C@@]3(C)CC[C@@H]4[C@@]2(OO3)[C@H]1CC[C@]4(C)O
free Cmax (healthy Chinese human; oral, dose not given, day 2): 175 ± 64.3 nM

CSCC[C@H](NC(=O)CNC(=O)[C@H](CC(=O)O)NC(=O)[C@@H](NC(=O)[C@@H](NC(=O)[C@@H](NC(=O)CNC(=O)[C@H](CCC(=O)O)NC(=O)[C@H](CCSC)NC(=O)[C@H](CC(=O)O)NC(=O)[C@H](C)NC(=O)[C@H](C)NC(=O)[C@@H](NC(=O)[C@H](CO)NC(=O)[C@@H](N)CC(C)C)[C@@H](C)O)C(C)C)C(C)C)[C@@H](C)O)C(=O)N[C@@H](C)C(=O)N[C@@H](CO)C(=O)NCC(=O)N[C@@H](CC(C)C)C(=O)N[C@@H](CC(=O)O)C(=O)N[C@@H](CCCCN)C(=O)N[C@@H](CC(=O)O)C(=O)N[C@@H](Cc1ccc(O)cc1)C(=O)N[C@@H](CC(C)C)C(=O)N[C@@H](CCCCN)C(=O)N1CCC[C@H]1C(=O)N[C@@H](CC(=O)O)C(=O)N[C@@H](CC(=O)O)C(=O)O
t1/2 alpha (male CD-1 mice, serum; intravenous, 480 mg/kg): 2 min

CN[C@](C)(C[18F])C(=O)O
tissue uptake (SCID mouse SK-OV-3 xenograft, pancreas; 60 min post injection): 27 ± 2.1 %ID/g

N#CC1(c2ccc3c(N)ncnn23)OC(COP(=O)(O)OP(=O)(O)OP(=O)(O)O)C(O)C1O (stereo not drawn)
AUC(0-t) (LC-MS/MS; CD-1 mouse, kidney; oral, 100 mg/kg of remdesivir): 8710 nmol·h/kg

O=C(O)CC[C@H](NC(=O)O[C@@H](CCCCNC(=O)c1ccc([18F])cc1)C(=O)O)C(=O)O
tissue uptake (mouse, PC-3 PIP/flu xenografts, bone; 180 min): 0.63 ± 0.14 %ID/g

CCN(Cc1ccccc1)C(=O)CCc1nc(CN2CCN(C(=O)Cc3ccc(OC)c(OC)c3)CC2)no1
concentration (LC-MS; rat, DRG; intravenous, 1 mg/kg, 5 min): 280 ± 32 ng/g

Cc1ccc(/C=C/C(=O)O)cc1-c1cc2c(cc1C)C(C)(C)CCC2(C)C
HDL level (Sprague-Dawley rat, male, plasma; oral, 100 mg/kg, 3 h, sesame oil vehicle): 57 ± 10 mg/dL

CC(C)COC1O[C@@H]2O[C@@]3(C)CC[C@H]4[C@H](C)CCC([C@H]1C)[C@@]24OO3 (stereo partly drawn)
dead embryos (Tg(fli1:EGFP) zebrafish embryos; 10 µg/mL, up to 48 hpf): 1 count

CCCC[C@H]1C(=O)N(C)[C@@H](CCCC)C(=O)N[C@@H](CCCNC(=O)CN2CCN(CC(=O)O)CCN(CC(=O)O)CCN(CC(=O)O)CC2)C(=O)N[C@H](C(=O)NCC(N)=O)CSCC(=O)N[C@@H](Cc2ccc(O)cc2)C(=O)N(C)[C@@H](C)C(=O)N[C@@H](CC(N)=O)C(=O)N2CCC[C@H]2C(=O)N[C@@H](Cc2c[nH]cn2)C(=O)N[C@@H](CC(C)C)C(=O)N(C)CC(=O)N[C@@H](Cc2c[nH]c3ccccc23)C(=O)N[C@@H](CO)C(=O)N[C@@H](Cc2c[nH]c3ccccc23)C(=O)N1C [gallium-68 labelled]
tumour uptake (static PET; NOD/SCID mice, CHO-hPD-L1 xenograft, CHO-hPD-L1 tumour; intravenous, 1 h post injection, before PBS treatment): 5.46 ± 1.07 %ID/g

COc1cc(NC(=O)C(=O)c2c(C)n(Cc3ccc(Cl)cc3)c3ccc(C)cc23)ccn1
C0 (male cynomolgus monkey, plasma; intravenous, 1 mg/kg): 2270 ng/mL

O=C(CN1CCN(c2cc3c(cc2F)c(=O)c(C(=O)O)cn3C2CC2)CC1)Nc1ccc(Cl)cc1
rate constant (two-compartment model, measured: k10; BALB/c mice, female; iv, 3.75 mg/kg): 0.00199 min⁻¹

CC(C)[C@H](NC(=O)CNC(=O)[C@H](CCC(N)=O)NC(=O)[C@H](C)N)C(=O)O
subjects given concomitant medication (human; 3 mg/kg single dose): 0%

O=c1cc(-c2ccccc2)oc2c(Br)c(O)c(O)c(O)c12
MRT(0-inf) (C57BL/6 mouse, plasma; oral, 250 mg/kg, single dose): 8.8 h
